Results pooled from the literature.
Each line is one published result; not all experiments were run side by side. ± marks the error that the study gave.
CYBB: NADPH oxidase 2 (CYBB, Homo sapiens, UniProt P04839)
Salicylate synthetase, Irp9: Salicylate synthetase, Irp9 (Yersinia enterocolitica, UniProt Q9X9I8)
Neuronal acetylcholine receptor; alpha3/beta2: Neuronal acetylcholine receptor; alpha3/beta2 (Rattus norvegicus, UniProt P04757+P12390)
ache: Acetylcholinesterase (ache, Electrophorus electricus, UniProt O42275)
NOX1: NADPH oxidase 1 (NOX1, Homo sapiens, UniProt Q9Y5S8)

Protein sequences, listed by entry. Tags and fused reporters are not part of them. Residues count along the entry.
UniProt P04839, whole entry, looked up: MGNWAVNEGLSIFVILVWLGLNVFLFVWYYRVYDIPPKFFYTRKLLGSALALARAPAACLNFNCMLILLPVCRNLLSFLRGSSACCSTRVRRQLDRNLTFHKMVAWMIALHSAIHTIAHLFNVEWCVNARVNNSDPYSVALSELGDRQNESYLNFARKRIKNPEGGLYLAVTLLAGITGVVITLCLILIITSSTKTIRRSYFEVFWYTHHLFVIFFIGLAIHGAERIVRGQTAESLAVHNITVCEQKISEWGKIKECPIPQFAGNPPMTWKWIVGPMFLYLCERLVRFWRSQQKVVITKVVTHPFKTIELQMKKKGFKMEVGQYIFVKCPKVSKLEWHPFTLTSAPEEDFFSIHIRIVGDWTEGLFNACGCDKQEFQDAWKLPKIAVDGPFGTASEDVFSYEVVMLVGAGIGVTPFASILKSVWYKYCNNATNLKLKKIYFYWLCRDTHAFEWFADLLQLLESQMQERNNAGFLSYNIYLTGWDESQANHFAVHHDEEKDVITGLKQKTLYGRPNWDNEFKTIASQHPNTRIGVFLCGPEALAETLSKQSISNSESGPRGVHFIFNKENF
UniProt Q9X9I8, 1-434: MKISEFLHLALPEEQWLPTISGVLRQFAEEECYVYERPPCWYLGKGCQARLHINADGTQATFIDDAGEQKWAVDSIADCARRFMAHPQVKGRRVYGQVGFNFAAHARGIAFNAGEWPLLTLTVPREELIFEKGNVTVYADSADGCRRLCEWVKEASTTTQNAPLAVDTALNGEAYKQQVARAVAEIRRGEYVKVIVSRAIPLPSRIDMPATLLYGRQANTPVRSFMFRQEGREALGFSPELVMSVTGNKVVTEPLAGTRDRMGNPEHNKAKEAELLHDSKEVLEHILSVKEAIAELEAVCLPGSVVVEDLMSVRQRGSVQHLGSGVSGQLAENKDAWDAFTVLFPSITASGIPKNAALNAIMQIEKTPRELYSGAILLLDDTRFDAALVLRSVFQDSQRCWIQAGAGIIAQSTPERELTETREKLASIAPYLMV
UniProt P04757, 26-499 limits assumed: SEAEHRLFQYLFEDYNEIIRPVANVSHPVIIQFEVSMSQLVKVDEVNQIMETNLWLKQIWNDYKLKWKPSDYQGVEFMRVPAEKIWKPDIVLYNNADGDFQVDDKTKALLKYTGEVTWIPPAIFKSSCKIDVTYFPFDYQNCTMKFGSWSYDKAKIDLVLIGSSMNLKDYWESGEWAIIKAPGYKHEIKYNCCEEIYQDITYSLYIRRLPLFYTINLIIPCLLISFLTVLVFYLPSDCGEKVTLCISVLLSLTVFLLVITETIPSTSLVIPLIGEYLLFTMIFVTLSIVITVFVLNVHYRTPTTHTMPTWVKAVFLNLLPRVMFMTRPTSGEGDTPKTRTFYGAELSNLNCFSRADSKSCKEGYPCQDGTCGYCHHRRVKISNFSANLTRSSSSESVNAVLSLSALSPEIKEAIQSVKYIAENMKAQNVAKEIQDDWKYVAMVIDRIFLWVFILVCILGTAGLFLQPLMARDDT
UniProt P04757, whole entry, looked up: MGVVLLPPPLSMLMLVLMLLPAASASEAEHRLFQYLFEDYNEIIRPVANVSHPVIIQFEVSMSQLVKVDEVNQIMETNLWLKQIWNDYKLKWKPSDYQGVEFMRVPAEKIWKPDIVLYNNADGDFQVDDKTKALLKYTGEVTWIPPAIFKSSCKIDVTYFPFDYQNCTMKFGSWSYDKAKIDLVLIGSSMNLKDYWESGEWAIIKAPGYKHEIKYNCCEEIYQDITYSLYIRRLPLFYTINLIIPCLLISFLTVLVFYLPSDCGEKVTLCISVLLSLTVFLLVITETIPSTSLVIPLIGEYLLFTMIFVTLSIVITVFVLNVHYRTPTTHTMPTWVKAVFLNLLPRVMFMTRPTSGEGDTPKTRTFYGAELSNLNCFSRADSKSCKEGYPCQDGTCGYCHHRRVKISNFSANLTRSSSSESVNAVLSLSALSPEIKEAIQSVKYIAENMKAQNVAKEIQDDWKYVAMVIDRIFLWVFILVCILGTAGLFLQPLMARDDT
UniProt P12390, 25-500 limits assumed: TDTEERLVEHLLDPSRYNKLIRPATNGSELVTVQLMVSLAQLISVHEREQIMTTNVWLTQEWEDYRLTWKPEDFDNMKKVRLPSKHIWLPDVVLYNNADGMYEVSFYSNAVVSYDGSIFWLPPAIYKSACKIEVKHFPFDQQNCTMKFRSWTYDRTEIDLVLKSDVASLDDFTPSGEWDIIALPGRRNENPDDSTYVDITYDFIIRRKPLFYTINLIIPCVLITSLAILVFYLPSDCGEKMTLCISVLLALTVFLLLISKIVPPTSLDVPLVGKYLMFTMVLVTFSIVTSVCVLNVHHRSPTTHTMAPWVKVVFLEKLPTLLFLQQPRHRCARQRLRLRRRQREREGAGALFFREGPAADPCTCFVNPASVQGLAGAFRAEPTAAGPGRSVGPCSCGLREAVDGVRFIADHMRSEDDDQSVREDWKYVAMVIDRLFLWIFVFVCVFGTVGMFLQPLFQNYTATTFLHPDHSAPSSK
UniProt P12390, whole entry, looked up: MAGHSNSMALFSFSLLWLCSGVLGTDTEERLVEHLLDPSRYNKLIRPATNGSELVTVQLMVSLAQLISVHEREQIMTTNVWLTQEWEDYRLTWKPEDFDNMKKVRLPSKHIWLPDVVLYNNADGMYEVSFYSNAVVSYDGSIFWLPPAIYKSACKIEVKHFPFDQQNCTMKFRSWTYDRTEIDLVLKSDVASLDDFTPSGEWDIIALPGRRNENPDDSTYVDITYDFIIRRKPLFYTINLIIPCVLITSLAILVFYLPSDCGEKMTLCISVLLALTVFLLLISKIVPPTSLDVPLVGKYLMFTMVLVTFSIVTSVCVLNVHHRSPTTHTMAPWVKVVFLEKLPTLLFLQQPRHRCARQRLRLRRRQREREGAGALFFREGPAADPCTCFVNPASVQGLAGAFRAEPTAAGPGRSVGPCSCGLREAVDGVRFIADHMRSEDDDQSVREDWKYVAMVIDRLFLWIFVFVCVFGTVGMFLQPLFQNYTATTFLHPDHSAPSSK
UniProt O42275, 24-633 limits assumed: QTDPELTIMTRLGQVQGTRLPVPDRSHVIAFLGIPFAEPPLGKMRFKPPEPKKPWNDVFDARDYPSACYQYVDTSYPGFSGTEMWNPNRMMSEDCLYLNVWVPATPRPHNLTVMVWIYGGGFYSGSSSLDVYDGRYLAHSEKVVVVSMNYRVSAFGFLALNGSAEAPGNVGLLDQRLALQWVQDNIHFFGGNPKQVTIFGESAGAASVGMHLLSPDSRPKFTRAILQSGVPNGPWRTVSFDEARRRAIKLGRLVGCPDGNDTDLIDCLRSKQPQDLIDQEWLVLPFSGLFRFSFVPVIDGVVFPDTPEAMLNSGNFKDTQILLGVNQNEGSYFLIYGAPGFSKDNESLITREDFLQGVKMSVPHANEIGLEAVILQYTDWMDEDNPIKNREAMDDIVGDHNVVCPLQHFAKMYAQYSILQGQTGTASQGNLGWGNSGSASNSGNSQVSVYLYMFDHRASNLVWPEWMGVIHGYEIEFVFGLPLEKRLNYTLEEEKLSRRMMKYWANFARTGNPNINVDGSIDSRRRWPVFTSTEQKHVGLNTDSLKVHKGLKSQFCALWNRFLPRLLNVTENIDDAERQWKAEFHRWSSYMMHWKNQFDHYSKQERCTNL
UniProt Q9Y5S8, whole entry: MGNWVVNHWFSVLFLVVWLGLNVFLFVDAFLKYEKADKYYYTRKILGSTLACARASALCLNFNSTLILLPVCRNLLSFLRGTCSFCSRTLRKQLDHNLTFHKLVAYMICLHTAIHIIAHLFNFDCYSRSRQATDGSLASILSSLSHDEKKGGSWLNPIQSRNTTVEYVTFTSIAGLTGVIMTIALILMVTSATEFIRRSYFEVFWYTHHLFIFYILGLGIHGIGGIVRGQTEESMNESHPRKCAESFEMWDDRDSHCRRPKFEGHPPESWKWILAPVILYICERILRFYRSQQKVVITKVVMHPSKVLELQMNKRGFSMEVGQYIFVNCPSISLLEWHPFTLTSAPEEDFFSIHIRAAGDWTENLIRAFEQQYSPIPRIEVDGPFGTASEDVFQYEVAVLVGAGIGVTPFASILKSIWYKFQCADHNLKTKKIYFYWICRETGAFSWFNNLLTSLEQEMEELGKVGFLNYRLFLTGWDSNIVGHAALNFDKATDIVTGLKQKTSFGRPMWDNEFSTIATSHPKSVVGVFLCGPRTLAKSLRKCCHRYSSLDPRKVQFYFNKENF
UniProt P14867, whole entry, looked up: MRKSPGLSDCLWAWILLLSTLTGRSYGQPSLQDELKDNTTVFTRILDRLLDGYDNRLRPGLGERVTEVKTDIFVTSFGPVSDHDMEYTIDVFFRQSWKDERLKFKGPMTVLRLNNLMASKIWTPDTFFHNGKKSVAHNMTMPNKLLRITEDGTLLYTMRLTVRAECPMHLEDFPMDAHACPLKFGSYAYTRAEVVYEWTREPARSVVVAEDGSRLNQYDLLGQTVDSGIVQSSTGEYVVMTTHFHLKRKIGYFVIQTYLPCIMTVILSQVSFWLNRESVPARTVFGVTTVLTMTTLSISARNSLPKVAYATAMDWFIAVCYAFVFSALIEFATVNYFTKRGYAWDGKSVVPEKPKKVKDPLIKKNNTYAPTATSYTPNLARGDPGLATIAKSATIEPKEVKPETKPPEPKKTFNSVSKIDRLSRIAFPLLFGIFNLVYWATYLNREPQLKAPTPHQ
UniProt Q8BLA8, whole entry: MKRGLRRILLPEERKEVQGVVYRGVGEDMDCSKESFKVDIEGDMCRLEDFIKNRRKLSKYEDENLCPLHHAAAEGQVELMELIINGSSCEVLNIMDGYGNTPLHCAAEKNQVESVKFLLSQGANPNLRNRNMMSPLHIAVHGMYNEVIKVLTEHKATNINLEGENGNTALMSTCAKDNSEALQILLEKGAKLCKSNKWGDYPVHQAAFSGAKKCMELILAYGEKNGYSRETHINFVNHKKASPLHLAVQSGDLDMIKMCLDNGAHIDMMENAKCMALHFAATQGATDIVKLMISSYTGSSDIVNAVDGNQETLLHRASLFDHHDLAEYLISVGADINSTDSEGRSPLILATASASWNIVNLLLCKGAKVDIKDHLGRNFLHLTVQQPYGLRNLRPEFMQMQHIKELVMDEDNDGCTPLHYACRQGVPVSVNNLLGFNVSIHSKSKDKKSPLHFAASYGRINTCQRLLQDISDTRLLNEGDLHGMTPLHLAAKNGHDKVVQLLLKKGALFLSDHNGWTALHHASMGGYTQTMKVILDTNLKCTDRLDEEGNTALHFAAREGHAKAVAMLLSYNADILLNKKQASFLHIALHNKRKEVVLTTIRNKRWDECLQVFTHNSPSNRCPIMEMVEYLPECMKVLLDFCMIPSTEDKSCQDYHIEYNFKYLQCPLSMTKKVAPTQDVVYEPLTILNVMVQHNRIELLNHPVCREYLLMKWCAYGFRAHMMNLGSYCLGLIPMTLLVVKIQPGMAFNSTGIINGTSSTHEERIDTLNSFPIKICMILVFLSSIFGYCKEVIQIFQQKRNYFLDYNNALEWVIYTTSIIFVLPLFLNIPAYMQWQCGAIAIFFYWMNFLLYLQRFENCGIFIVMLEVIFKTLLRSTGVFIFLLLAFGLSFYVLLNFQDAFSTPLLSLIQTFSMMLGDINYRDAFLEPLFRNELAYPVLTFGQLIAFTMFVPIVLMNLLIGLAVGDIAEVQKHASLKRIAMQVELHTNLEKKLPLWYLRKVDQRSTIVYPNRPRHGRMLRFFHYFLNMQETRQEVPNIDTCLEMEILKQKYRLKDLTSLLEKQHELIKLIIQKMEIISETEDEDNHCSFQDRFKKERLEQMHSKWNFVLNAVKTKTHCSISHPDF
UniProt P36544, 23-502 limits assumed: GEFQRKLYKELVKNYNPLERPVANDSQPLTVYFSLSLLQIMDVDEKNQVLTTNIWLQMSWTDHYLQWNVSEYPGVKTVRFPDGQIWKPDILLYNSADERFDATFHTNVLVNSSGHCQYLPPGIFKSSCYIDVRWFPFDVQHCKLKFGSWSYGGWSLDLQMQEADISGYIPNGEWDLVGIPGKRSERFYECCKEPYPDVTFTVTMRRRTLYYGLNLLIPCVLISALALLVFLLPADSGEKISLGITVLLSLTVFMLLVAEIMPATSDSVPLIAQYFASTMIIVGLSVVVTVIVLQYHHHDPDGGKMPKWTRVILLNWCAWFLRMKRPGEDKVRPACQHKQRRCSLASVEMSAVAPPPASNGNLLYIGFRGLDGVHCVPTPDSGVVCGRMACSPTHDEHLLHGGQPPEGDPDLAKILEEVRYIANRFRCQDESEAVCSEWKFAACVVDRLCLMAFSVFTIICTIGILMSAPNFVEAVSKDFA
UniProt P32300, whole entry: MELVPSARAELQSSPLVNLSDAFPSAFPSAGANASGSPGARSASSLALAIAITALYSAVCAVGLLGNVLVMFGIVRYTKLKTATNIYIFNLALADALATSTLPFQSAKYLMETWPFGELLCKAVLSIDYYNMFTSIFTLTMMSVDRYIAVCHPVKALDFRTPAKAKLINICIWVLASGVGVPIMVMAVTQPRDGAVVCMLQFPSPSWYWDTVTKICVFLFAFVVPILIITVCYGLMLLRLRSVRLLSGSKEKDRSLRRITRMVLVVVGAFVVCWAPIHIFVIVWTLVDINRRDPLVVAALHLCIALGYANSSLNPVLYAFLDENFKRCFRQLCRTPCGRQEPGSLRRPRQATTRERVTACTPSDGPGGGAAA

Compound = Cc1ccc2nc(Sc3ncnc4c3nnn4Cc3ccccc3)oc2c1; target = CYBB; test = enzyme activity, inhibitor, MCLA chemiluminescence; test system = cell-free membranes; IC50 = > 100000 nM
Compound = CC[C@H](C)[C@H](NC(=O)[C@@H](NC(=O)[C@H](CC(=O)O)NC(=O)[C@H](CC(C)C)NC(=O)[C@H](CC(C)C)NC(=O)[C@H](CC(C)C)NC(=O)[C@H](CCCNC(=N)N)NC(=O)[C@H](CC(N)=O)NC(=O)[C@H](CC(N)=O)NC(=O)[C@H](C)NC(=O)[C@H](C)NC(=O)[C@H](CCC(N)=O)NC(=O)[C@H](CCC(N)=O)NC(=O)[C@H](CCCCN)NC(=O)[C@H](CCC(=O)O)NC(=O)[C@H](CCCCN)NC(=O)[C@H](CCC(=O)O)NC(=O)[C@H](CCC(N)=O)NC(=O)[C@H](CCCCN)NC(=O)[C@H](CCC(=O)O)NC(=O)[C@@H](NC(=O)[C@H](CCC(=O)O)NC(=O)[C@@H](NC(=O)[C@H](CCSC)NC(=O)[C@H](CCCCN)NC(=O)[C@H](CCCNC(=N)N)NC(=O)[C@H](CC(C)C)NC(=O)[C@H](CC(C)C)NC(=O)[C@H](Cc1c[nH]cn1)NC(=O)[C@H](N)Cc1ccccc1)[C@@H](C)CC)[C@@H](C)CC)[C@@H](C)O)C(N)=O; target = Corticotropin-releasing factor receptor 2/Corticotropin-releasing factor-binding protein (Homo sapiens, UniProt P24387+Q13324); test = GTPγS binding, antagonist; setting = with: CRF 1 µM; IC50 = 298 ± 37 nM
Compound = C=C(C)[C@@H]1[C@H]2OC(=O)[C@@H]1[C@]1(O)C[C@H]3O[C@]34C(=O)O[C@H]2[C@]14C; target = GABA-A receptor; alpha-1/beta-3/gamma-2 (Homo sapiens, UniProt P14867+P18507+P28472); test = chloride current, inhibitor, whole-cell voltage clamp; test system = L929; setting = 3 min preincubation, with: GABA at EC90; IC50 = 3700 nM
Compound = O=C1S/C(=C/c2cc([N+](=O)[O-])cc([N+](=O)[O-])c2O)C(=O)N1c1ccccc1; target = Salicylate synthetase, Irp9; test = pyruvate production, inhibitor; setting = 25 °C, with: chorismate 10 µM; IC50 = > 160000 nM
Compound = C[C@H]1[C@H](F)C[C@@H](C(=O)NCc2cc(-c3cnc(C(F)(F)F)nc3)ncc2C(F)(F)F)N1S(=O)(=O)c1ccc(F)cc1; target = Transient receptor potential cation channel subfamily A member 1 (Trpa1, Mus musculus, UniProt Q8BLA8); test = calcium influx, antagonist, FlexStation calcium; test system = HEK-293T transfected; setting = with: CS gas at EC50; IC50 = 70 nM
Compound = CC(C)C[C@@H]1NC(=O)[C@H](CCC(=O)O)NC(=O)[C@@H]2CCCN2C(=O)[C@H](Cc2c[nH]cn2)NC(=O)[C@H](CCC(=O)O)NC(=O)[C@H](CC(C)C)NC(=O)[C@H](Cc2c[nH]cn2)NC(=O)[C@@H]2CSSC[C@H](NC(=O)CN)C(=O)N[C@@H](CSSC[C@@H](C(N)=O)NC1=O)C(=O)N[C@@H](CO)C(=O)N[C@@H](Cc1c[nH]cn1)C(=O)N1CCC[C@H]1C(=O)N[C@@H](C)C(=O)N2; target = Neuronal acetylcholine receptor; alpha3/beta2; test = ion current, antagonist, two-electrode voltage clamp; test system = Xenopus laevis oocytes; setting = with: 100 µM acetylcholine; IC50 = 1.22 nM
Compound = CNC(=O)Oc1ccc2c(c1)[C@]1(C)CCN(C)[C@@H]1N2C; target = Acetylcholinesterase (Ace, Anopheles gambiae, UniProt Q869C3); test = enzyme activity, inhibitor, Ellman; setting = 10 min, room temperature, with: acetylthiocholine; IC50 = 8.27 nM
Compound = CC(C)C[C@@H]1NC(=O)[C@H](CCC(=O)O)NC(=O)[C@@H]2CCCN2C(=O)[C@H](Cc2c[nH]cn2)NC(=O)[C@H](CC(N)=O)NC(=O)[C@H](CC(C)C)NC(=O)[C@H](Cc2c[nH]cn2)NC(=O)[C@@H]2CSSC[C@H](NC(=O)CN)C(=O)N[C@@H](CSSC[C@@H](C(N)=O)NC1=O)C(=O)N[C@@H](CO)C(=O)N[C@@H](Cc1c[nH]cn1)C(=O)N1CCC[C@H]1C(=O)N[C@@H](C)C(=O)N2; target = Neuronal acetylcholine receptor; alpha3/beta2; test = ion current, antagonist, two-electrode voltage clamp; test system = Xenopus laevis oocytes; setting = with: 100 µM acetylcholine; IC50 = 0.29 nM
Compound = C[C@@H]1NC(=O)[C@H](CCCNC(=N)N)NC(=O)[C@H](CCCNC(=N)N)NC(=O)[C@H](Cc2c[nH]cn2)NC(=O)[C@H](CO)NC(=O)[C@@H]2CSSC[C@H](NC(=O)CN)C(=O)N[C@@H](CSSC[C@@H](C(N)=O)NC(=O)[C@H](CO)NC(=O)[C@H](CCCNC(=N)N)NC1=O)C(=O)N[C@@H](CO)C(=O)N[C@@H](Cc1c[nH]cn1)C(=O)N1CCC[C@H]1C(=O)N[C@@H](C)C(=O)N2; target = Neuronal acetylcholine receptor subunit alpha-7 (CHRNA7, Homo sapiens, UniProt P36544); test = ion current, antagonist, two-electrode voltage clamp; test system = Xenopus oocytes; setting = holding -70 mV, with: 100 µM acetylcholine; IC50 = 10100 nM
Compound = O=C(O)c1ccccc1[As](=O)(O)O; target = Sphingomyelin phosphodiesterase (SMPD1, Homo sapiens, UniProt P17405); test = enzyme activity, inhibitor; setting = pH 6.5, with: sphingomyelin substrate; IC50 = 1700 nM
Compound = O=C(O)c1cccc(S(=O)(=O)Nc2ccccc2C(=O)O)c1; target = Salicylate synthetase, Irp9; test = salicylate production, inhibitor; setting = pH 7.5, 25 °C, with: chorismate 2 µM; IC50 = > 160000 nM
Compound = CC(C)C[C@@H]1NC(=O)[C@H](CCC(=O)O)NC(=O)[C@@H]2CCCN2C(=O)[C@H](Cc2c[nH]cn2)NC(=O)[C@H](CC(N)=O)NC(=O)[C@H]([C@@H](C)O)NC(=O)[C@H](CO)NC(=O)[C@@H]2CSSC[C@H](NC(=O)CN)C(=O)N[C@@H](CSSC[C@@H](C(N)=O)NC1=O)C(=O)N[C@@H](CO)C(=O)N[C@@H](Cc1c[nH]cn1)C(=O)N1CCC[C@H]1C(=O)N[C@@H](C)C(=O)N2; target = Neuronal acetylcholine receptor; alpha3/beta2; test = ion current, antagonist, two-electrode voltage clamp; test system = Xenopus laevis oocytes; setting = with: 100 µM acetylcholine; IC50 = 24.5 nM
Compound = Cc1cccc2oc(Sc3ncnc4c3nnn4Cc3ccccc3)nc12; target = NADPH oxidase 5 (NOX5, Homo sapiens, UniProt Q96PH1); test = enzyme activity, inhibitor, Amplex Red; test system = cell-free membranes; IC50 = 1200 ± 100 nM
Compound = COc1ccc2c(c1)c(CC(=O)OCC[Si](C)(C)C)c(C)n2C(=O)c1ccc(Cl)cc1; target = ache; test = enzyme activity, inhibitor, Ellman; IC50 = 3320 ± 360 nM
Compound = O=[N+]([O-])c1cc(S(=O)(=O)c2cc([N+](=O)[O-])c(O)c([N+](=O)[O-])c2)cc([N+](=O)[O-])c1O; target = Salicylate synthetase, Irp9; test = pyruvate production, inhibitor; setting = 25 °C, with: chorismate 10 µM; IC50 = > 160000 nM
Compound = COc1ccc2cc([C@H](C)C(=O)OCc3ccc(OC(=O)OCC[Si](C)(C)C)cc3)ccc2c1; target = ache; test = enzyme activity, inhibitor, Ellman; IC50 = 830 ± 150 nM
Compound = Brc1ccc2nc(Sc3ncnc4c3nnn4Cc3ccccc3)oc2c1; target = NOX1; test = enzyme activity, inhibitor, Amplex Red; test system = cell-free membranes; IC50 = > 100000 nM
Compound = CC[C@H](C)[C@@H]1NC(=O)[C@H](CCC(=O)O)NC(=O)[C@@H]2CCCN2C(=O)[C@H](Cc2c[nH]cn2)NC(=O)[C@H](CC(N)=O)NC(=O)[C@H](CC(C)C)NC(=O)[C@H](Cc2c[nH]cn2)NC(=O)[C@@H]2CSSC[C@H](NC(=O)CN)C(=O)N[C@@H](CSSC[C@@H](C(N)=O)NC1=O)C(=O)N[C@@H](CO)C(=O)N[C@@H](Cc1c[nH]cn1)C(=O)N1CCC[C@H]1C(=O)N[C@@H](C)C(=O)N2; target = Neuronal acetylcholine receptor; alpha3/beta2; test = ion current, antagonist, two-electrode voltage clamp; test system = Xenopus laevis oocytes; setting = with: 100 µM acetylcholine; IC50 = 0.28 nM
Compound = COc1ccc2nc(Sc3ncnc4c3nnn4Cc3ccccc3)oc2c1; target = NOX1; test = enzyme activity, inhibitor, Amplex Red; test system = cell-free membranes; IC50 = > 100000 nM
Compound = CC(C)C[C@@H]1NC(=O)[C@H](CCC(=O)O)NC(=O)[C@@H]2CCCN2C(=O)[C@H](Cc2c[nH]cn2)NC(=O)[C@H](CCCCC(=O)O)NC(=O)[C@H](CC(C)C)NC(=O)[C@H](Cc2c[nH]cn2)NC(=O)[C@@H]2CSSC[C@H](NC(=O)CN)C(=O)N[C@@H](CSSC[C@@H](C(N)=O)NC1=O)C(=O)N[C@@H](CO)C(=O)N[C@@H](Cc1c[nH]cn1)C(=O)N1CCC[C@H]1C(=O)N[C@@H](C)C(=O)N2; target = Neuronal acetylcholine receptor; alpha4/beta2 (Rattus norvegicus, UniProt P09483+P12390); test = ACh-evoked current, antagonist, two-electrode voltage clamp; test system = Xenopus laevis oocytes; setting = with: ACh 100 µM; IC50 = 280 nM
Compound = C[C@]12CC[C@@H]3c4ccc(OS(=O)(=O)F)cc4C[C@@H](CCCCCCCCC[S+]([O-])CCCC(F)(F)C(F)(F)F)[C@H]3[C@@H]1CC[C@@H]2O (stereo partly shown); target = Estrogen receptor (ESR1, Homo sapiens, UniProt P03372); test = binding, fluorescence polarisation; setting = with: Fluormone ligand; IC50 = 1.5 nM
Compound = CC(C)C[C@@H]1NC(=O)[C@H](CCC(=O)O)NC(=O)[C@@H]2CCCN2C(=O)[C@H](Cc2c[nH]cn2)NC(=O)[C@H](CC(=O)O)NC(=O)[C@H](C(C)C)NC(=O)[C@H](CO)NC(=O)[C@@H]2CSSC[C@H](NC(=O)CN)C(=O)N[C@@H](CSSC[C@@H](C(N)=O)NC1=O)C(=O)N[C@@H](CO)C(=O)N[C@@H](Cc1c[nH]cn1)C(=O)N1CCC[C@H]1C(=O)N[C@@H](C)C(=O)N2; target = Chrna3/Chrnb2/Chrna6, with beta3 subunit (Rattus norvegicus, UniProt P04757+P12390+P43143); test = ion current, antagonist, two-electrode voltage clamp; test system = Xenopus laevis oocytes; setting = with: 100 µM acetylcholine; IC50 = 362 nM
Compound = Clc1ccc2nc(Sc3ncnc4c3nnn4Cc3ccccc3)oc2c1; target = NADPH oxidase 4 (NOX4, Homo sapiens, UniProt Q9NPH5); test = enzyme activity, inhibitor, Amplex Red; test system = cell-free membranes; IC50 = > 100000 nM
Compound = CC(C)(C)CCOC(=O)Cc1ccccc1Nc1c(Cl)cccc1Cl; target = ache; test = enzyme activity, inhibitor, Ellman; IC50 = 2690 ± 150 nM
Compound = CCC(N)Cc1c[nH]c2ccc(Cl)cc12 (stereo not shown); target = Sodium-dependent dopamine transporter (Slc6a3, Rattus norvegicus, UniProt P23977); test = dopamine uptake, inhibitor; test system = rat brain synaptosomes; IC50 = 1840 ± 150 nM
Compound = c1ccc(Cn2nnc3c(Sc4nc5ccccc5[nH]4)ncnc32)cc1; target = NOX1; test = enzyme activity, inhibitor, Amplex Red; test system = cell-free membranes; IC50 = > 100000 nM
Compound = CC[C@H](C)[C@@H]1NC(=O)[C@H](CCC(=O)O)NC(=O)[C@@H]2CCCN2C(=O)[C@H](Cc2c[nH]cn2)NC(=O)[C@H](CC(N)=O)NC(=O)[C@H](C(C)C)NC(=O)[C@H](CO)NC(=O)[C@@H]2CSSC[C@H](NC(=O)CN)C(=O)N[C@@H](CSSC[C@@H](C(N)=O)NC1=O)C(=O)N[C@@H](CO)C(=O)N[C@@H](Cc1c[nH]cn1)C(=O)N1CCC[C@H]1C(=O)N[C@@H](C)C(=O)N2; target = Neuronal acetylcholine receptor; alpha3/beta2; test = ion current, antagonist, two-electrode voltage clamp; test system = Xenopus laevis oocytes; setting = with: 100 µM acetylcholine; IC50 = 6.41 nM
Compound = FC(F)(F)c1ccc2nc(Sc3ncnc4c3nnn4Cc3ccccc3)oc2c1; target = CYBB; test = enzyme activity, inhibitor, MCLA chemiluminescence; test system = cell-free membranes; IC50 = > 100000 nM
Compound = O=C(NCC1CCN(Cc2ccccc2)CC1)c1cn(Cc2cccc(Cl)c2)nn1; target = Neuronal acetylcholine receptor subunit alpha-7 (Chrna7, Rattus norvegicus, UniProt Q05941); test = binding; test system = rat brain membranes; setting = with: radiolabelled α-bungarotoxin; IC50 = 1600 nM
Compound = Cc1cccc2nc(Sc3ncnc4c3nnn4Cc3ccccc3)oc12; target = CYBB; test = enzyme activity, inhibitor, MCLA chemiluminescence; test system = cell-free membranes; IC50 = > 100000 nM
Compound = Cc1c(CC(=O)O)c2ccccc2n1C1CCN(Cc2ccccc2)CC1; target = Delta-type opioid receptor (Oprd1, Mus musculus, UniProt P32300); test = agonist; test system = mouse vas deferens; IC50 = 1270 ± 355 nM

Some of these lines once more:
Compound = Clc1ccc2nc(Sc3ncnc4c3nnn4Cc3ccccc3)oc2c1; target = NADPH oxidase 4 (NOX4, Homo sapiens, UniProt Q9NPH5); test = enzyme activity, inhibitor, Amplex Red; test system = cell-free membranes; IC50 = > 100000 nM
Compound = COc1ccc2cc([C@H](C)C(=O)OCc3ccc(OC(=O)OCC[Si](C)(C)C)cc3)ccc2c1; target = ache; test = enzyme activity, inhibitor, Ellman; IC50 = 830 ± 150 nM
